Experimental data of several laboratories.
Compare with care: the assays were run in different laboratories.
Target: Cytochrome P450 3A4 (CYP3A4, Homo sapiens, UniProt P08684)
Chain of UniProt P08684 (whole entry, looked up): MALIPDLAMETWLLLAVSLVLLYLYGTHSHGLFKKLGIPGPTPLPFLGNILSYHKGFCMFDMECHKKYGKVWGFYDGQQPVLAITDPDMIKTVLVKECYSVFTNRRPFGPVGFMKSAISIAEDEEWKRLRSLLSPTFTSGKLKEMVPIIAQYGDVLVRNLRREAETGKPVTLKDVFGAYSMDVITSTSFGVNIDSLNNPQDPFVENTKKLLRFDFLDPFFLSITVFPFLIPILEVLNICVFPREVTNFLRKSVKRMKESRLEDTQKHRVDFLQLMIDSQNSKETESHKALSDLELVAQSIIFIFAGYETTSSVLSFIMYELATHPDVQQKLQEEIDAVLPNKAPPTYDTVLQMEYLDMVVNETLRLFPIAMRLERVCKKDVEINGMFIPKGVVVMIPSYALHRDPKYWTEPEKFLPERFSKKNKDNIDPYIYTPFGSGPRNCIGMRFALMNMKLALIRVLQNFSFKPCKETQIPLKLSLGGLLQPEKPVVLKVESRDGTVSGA

| SMILES | test | system | conditions | quantity | result |
| --- | --- | --- | --- | --- | --- |
| C=CC(=O)Nc1cc(Nc2nccc(-c3cn(C)c4ccccc34)n2)c(OCC(F)(F)F)nc1N(C)CCNC | substrate, recombinant enzyme, substrate depletion | – | – | fraction metabolised | 53% |
| CCC(C)n1ncn(-c2ccc(N3CCN(c4ccc(OCC5COC(Cn6cncn6)(c6ccc(Cl)cc6Cl)O5)cc4)CC3)cc2)c1=O (centres unmarked) | – | human, both sexes, plasma | oral, 200 mg, multiple doses, with: pirtobrutinib | Cmax | 574 ng/mL |
| Cc1cc(Nc2ncnc3ccc(NC4=NC(C)(C)CO4)cc23)ccc1Oc1ccn2ncnc2c1 | – | human, plasma | oral, 300 mg single dose, day 1, compound alone | half-life (arithmetic mean) | 472 min |
| CCCCC1=NC2(CCCC2)C(=O)N1Cc1ccc(-c2ccccc2S(=O)(=O)Nc2noc(C)c2C)c(COCC)c1 | substrate | human liver microsomes | – | intrinsic clearance | 0.497 µL/min/pmol |
| C=C(F)C(=O)N1CCN(c2nc(OC[C@@H]3CCCN3C)nc3c2CCN(c2cccc4cccc(Cl)c24)C3)C[C@@H]1CC#N | – | healthy volunteers, plasma | 200 mg, geometric mean, with: itraconazole once daily | Cmax | 201 ng/mL |
| CC[C@H]1[C@@H](O)[C@@H]2[C@H](CC[C@]3(C)[C@@H]([C@H](C)CCNC(=O)NS(=O)(=O)c4ccc(C(C)(C)C)cc4)CC[C@@H]23)[C@@]2(C)CC[C@@H](O)C[C@@H]12 | – | human, plasma | 10 mg, day 1, compound alone | AUC(0-inf) geometric mean | 394 ng·h/mL |
| Cn1cncc1[C@@](N)(c1ccc(Cl)cc1)c1ccc2c(c1)c(-c1cccc(Cl)c1)cc(=O)n2C | – | human liver microsomes | 1 µM, with: ketoconazole | share of CYP-mediated metabolism | 92.3% |
| N#C[C@H](C[C@@H]1CCCNC1=O)NC(=O)[C@H](CC1CC1)NC(=O)c1cc2cccc(Cl)c2[nH]1 | NADPH metabolic stability | – | 2 µM, pH 7.4, 37 °C, 100 pmol/mL enzyme | half-life | 0.89 min |

Repeated from above:
| SMILES | test | system | conditions | quantity | result |
| --- | --- | --- | --- | --- | --- |
| CCC(C)n1ncn(-c2ccc(N3CCN(c4ccc(OCC5COC(Cn6cncn6)(c6ccc(Cl)cc6Cl)O5)cc4)CC3)cc2)c1=O (centres unmarked) | – | human, both sexes, plasma | oral, 200 mg, multiple doses, with: pirtobrutinib | Cmax | 574 ng/mL |
